Assay results of several laboratories.
Compare with care: the assays were run in different laboratories. Values joined by “and” are separate records of one study, mostly repeats; a detail may differ.
RPS6KA5 N-terminal kinase domain: Ribosomal protein S6 kinase alpha-5, N-terminal kinase domain (RPS6KA5, Homo sapiens, UniProt O75582)
UniProt Q9Y2J8, sequence (whole entry, looked up): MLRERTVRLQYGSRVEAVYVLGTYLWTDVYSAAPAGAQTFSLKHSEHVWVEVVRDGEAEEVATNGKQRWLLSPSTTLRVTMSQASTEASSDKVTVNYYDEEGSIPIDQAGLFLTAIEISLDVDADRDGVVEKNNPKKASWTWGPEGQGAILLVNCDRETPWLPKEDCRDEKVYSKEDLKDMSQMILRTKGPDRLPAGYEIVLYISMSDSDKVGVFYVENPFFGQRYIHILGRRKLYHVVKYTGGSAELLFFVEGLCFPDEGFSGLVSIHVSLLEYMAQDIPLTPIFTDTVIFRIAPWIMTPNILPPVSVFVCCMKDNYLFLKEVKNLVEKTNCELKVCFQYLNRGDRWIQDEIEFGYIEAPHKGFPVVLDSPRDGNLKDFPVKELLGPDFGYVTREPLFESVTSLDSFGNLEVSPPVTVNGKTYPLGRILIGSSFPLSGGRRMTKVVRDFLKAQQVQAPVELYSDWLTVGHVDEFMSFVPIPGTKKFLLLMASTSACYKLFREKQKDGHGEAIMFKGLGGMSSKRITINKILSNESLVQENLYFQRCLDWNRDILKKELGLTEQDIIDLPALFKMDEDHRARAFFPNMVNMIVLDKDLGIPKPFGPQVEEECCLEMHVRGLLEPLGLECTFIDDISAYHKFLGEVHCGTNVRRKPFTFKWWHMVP
UniProt O75582, sequence (whole entry, looked up): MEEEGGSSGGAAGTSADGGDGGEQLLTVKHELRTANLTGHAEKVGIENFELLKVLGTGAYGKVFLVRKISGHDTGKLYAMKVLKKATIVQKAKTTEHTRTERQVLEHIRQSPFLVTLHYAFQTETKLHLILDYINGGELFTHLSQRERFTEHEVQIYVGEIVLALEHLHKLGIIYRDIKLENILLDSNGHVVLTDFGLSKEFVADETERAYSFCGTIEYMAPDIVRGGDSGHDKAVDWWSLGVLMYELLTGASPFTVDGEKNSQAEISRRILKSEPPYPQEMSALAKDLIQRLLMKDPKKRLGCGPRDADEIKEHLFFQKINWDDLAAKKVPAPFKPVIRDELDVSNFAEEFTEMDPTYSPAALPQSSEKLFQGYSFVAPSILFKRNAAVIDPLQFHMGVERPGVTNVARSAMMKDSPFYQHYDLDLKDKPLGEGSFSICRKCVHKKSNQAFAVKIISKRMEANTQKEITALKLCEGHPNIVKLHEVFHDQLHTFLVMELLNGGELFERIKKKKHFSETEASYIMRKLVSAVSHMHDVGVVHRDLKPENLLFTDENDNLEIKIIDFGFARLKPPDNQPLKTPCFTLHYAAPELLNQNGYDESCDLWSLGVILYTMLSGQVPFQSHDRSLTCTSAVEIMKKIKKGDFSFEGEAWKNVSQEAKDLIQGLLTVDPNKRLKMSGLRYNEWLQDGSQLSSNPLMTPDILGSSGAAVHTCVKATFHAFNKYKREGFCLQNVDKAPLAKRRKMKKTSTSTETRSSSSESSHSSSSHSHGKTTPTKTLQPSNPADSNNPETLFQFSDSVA
UniProt Q16719, sequence (whole entry, looked up): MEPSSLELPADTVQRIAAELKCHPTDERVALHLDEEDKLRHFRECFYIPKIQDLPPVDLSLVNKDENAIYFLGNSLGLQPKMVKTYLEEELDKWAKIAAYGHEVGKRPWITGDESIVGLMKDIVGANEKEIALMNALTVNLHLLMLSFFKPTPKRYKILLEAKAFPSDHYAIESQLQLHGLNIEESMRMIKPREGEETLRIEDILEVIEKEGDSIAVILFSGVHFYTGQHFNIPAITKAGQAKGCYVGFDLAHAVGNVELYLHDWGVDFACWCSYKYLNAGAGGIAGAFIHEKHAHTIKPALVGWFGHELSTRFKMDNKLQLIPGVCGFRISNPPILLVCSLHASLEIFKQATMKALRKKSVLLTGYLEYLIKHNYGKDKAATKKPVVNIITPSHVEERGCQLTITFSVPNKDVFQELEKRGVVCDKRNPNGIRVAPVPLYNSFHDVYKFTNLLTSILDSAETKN
UniProt P00761, sequence (whole entry, looked up): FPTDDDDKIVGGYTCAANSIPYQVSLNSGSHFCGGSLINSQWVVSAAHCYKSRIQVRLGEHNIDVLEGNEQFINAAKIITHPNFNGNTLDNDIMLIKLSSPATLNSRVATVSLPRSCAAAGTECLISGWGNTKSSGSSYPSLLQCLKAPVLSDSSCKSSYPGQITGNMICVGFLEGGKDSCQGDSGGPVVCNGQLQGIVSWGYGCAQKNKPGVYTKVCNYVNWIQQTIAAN
UniProt Q9HBY8, sequence (whole entry, looked up): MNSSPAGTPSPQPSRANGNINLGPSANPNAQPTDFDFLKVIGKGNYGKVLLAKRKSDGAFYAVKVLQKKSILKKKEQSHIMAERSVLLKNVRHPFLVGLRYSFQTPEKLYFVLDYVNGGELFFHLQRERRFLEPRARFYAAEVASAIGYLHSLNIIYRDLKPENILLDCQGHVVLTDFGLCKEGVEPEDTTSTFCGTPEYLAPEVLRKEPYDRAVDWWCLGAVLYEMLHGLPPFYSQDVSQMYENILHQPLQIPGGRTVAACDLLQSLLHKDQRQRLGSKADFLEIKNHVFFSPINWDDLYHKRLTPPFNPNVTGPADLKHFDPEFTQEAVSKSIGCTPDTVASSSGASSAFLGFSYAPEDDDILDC
UniProt O00141, sequence (whole entry, looked up): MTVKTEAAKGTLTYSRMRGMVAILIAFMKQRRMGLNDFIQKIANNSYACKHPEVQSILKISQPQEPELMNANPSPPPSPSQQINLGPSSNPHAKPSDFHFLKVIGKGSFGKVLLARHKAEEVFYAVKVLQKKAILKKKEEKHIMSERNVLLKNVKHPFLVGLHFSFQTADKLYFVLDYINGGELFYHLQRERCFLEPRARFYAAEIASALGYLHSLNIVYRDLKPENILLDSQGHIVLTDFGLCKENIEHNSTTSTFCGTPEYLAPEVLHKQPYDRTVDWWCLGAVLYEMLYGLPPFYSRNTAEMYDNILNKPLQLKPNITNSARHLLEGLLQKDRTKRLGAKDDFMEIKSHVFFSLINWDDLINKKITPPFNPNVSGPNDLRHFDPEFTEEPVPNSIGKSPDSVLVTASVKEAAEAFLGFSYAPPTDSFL
UniProt P06276, sequence (whole entry, looked up): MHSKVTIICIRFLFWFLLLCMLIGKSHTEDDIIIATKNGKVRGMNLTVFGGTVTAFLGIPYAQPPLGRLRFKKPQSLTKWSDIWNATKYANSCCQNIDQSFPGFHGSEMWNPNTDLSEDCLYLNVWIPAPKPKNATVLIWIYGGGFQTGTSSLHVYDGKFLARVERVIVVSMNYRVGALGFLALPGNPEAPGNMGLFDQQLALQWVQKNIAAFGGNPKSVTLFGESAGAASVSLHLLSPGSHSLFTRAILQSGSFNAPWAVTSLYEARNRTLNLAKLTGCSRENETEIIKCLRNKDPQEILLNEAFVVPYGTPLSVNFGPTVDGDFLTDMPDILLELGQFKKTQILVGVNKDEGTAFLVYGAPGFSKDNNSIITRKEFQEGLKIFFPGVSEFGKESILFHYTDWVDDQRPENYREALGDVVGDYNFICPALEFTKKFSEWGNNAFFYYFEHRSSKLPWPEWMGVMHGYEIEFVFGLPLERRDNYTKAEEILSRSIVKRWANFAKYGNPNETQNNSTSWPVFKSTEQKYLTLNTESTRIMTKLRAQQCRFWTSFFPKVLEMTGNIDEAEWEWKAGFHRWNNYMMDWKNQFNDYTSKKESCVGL
UniProt Q9Y4K4, sequence (whole entry, looked up): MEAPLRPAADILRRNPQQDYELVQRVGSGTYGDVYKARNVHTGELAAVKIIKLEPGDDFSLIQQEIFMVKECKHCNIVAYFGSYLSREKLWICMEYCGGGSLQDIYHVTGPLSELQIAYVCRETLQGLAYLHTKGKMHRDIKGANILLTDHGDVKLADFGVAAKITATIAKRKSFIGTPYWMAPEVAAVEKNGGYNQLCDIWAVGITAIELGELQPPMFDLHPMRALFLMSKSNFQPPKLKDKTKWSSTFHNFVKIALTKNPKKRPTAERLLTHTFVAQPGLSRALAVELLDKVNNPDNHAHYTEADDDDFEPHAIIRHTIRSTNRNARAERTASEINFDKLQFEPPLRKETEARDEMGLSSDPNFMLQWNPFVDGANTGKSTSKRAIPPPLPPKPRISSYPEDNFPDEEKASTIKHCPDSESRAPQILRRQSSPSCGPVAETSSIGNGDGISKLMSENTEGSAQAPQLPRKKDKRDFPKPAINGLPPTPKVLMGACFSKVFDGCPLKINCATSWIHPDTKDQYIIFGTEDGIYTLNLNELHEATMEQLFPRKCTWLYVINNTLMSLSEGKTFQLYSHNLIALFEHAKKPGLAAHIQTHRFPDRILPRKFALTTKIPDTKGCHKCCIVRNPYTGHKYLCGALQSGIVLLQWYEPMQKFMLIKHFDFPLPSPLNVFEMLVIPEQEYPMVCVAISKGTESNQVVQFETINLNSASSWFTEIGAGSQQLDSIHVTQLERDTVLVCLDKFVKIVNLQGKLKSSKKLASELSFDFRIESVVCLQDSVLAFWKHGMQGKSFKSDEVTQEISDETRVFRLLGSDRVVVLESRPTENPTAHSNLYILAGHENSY
UniProt P35354, sequence (whole entry, looked up): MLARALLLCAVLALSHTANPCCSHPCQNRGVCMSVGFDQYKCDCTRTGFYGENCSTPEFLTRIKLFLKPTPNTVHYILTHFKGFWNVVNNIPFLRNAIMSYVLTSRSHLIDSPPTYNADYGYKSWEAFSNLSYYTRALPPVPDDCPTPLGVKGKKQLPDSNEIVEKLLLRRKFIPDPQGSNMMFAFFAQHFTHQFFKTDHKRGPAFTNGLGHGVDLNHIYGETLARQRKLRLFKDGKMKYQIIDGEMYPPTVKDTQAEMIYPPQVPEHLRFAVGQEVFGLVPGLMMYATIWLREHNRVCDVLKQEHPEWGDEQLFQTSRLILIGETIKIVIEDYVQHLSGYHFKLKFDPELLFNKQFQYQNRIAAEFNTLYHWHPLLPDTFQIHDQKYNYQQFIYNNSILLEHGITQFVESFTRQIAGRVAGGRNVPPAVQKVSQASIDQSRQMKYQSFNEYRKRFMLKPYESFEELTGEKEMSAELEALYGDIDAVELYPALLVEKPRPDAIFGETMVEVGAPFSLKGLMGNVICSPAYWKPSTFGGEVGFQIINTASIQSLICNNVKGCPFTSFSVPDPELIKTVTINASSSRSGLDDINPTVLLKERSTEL

SMILES	target	test	system	setting	inhibition
C=CC(=O)Nc1cc(-c2nn(C3CCC(N4CCN(C(C)=O)CC4)CC3)c3ncnc(N)c23)ccc1Oc1ccccc1 (centres unmarked)	RPS6KA5 N-terminal kinase domain	inhibitor, KiNativ profiling	biochemical	2 µM	12.9%
CN(C)[C@H]1C[C@@]23CC[C@@]4(O2)C(=CC[C@]2(C)[C@@H](c5ccc6ccncc6c5)CC[C@H]24)C=C3[C@@H](O)[C@@H]1O	RPS6KA5 N-terminal kinase domain	ATP probe labelling, inhibitor, KiNativ profiling		0.1 µM	4.9%
CN(/N=C/c1ccccc1C(=O)O)c1nc(-c2ccccc2Cl)cs1	Epithelial discoidin domain-containing receptor 1 (DDR1, Homo sapiens, UniProt Q08345)	enzyme activity, inhibitor		1 µM	-18.9%
CC(C)[C@H]1NC(=O)C[C@H]2/C=C/CCSSC[C@@H](NC1=O)C(=O)N[C@H](Cc1cccc3ccccc13)C(=O)NCC(=O)O2	Serine/threonine-protein kinase Sgk2 (SGK2, Homo sapiens, UniProt Q9HBY8)	enzyme activity, inhibitor		10 µM	1.6%
CN[C@@H]1[C@H](O)[C@H](NC)[C@H]2O[C@]3(O)[C@H](O[C@@H]2[C@H]1O)O[C@H](C)C[C@H]3NC(=O)Cc1cc(Cl)ccn1	Cysteinyl leukotriene receptor 1 (CYSLTR1, Homo sapiens, UniProt Q9Y271)	ligand displacement, radioligand		10 µM	4%
O=C(O)CCn1c(=O)oc2cc(Cl)c(Cl)cc21	Kynureninase (Homo sapiens, UniProt Q16719)	enzyme activity, inhibitor		100 µM	-4.7%
C[C@H](NCc1ccc(-c2ccc(C(F)(F)F)cc2)cc1)C(N)=O	PDE4, human	enzyme activity	biochemical	1 µM, together with: [3H]cAMP 1.01 µM	-5%
Cc1cc(-c2ccc3ccccc3c2)nnc1NCCN1CCN(C)CC1	Prostaglandin G/H synthase 2 (PTGS2, Homo sapiens, UniProt P35354)	enzyme activity		10000 nM	9%
CCC(O)CN1CCN(C(=O)Cc2cn3ccccc3n2)CC1 (centres unmarked)	Cholinesterase (BCHE, Homo sapiens, UniProt P06276)	enzyme activity, inhibitor, Ellman		10 µM	23.9%
CCC1CC(c2ccc(C(=O)O)cc2C)=NN1c1ccc(C#N)c(Cl)c1 (centres unmarked)	Histone-lysine N-methyltransferase SUV39H1 (SUV39H1, Homo sapiens, UniProt O43463)	enzyme activity, inhibitor		10 µM	21%
CC(C)C[C@H](NC(=O)[C@H](CCCCN)NC(=O)[C@H](CCCCN)NC(=O)Cc1cccc(CNC(=O)[C@@H](C)NC(=N)N)c1)B(O)O	Trypsin (Sus scrofa, UniProt P00761)	enzyme activity, inhibitor		100 µM	38%
O=C(O)c1ccccc1/C=N/Nc1nc(-c2ccccc2Cl)cs1	Mitogen-activated protein kinase kinase kinase kinase 5 (MAP4K5, Homo sapiens, UniProt Q9Y4K4)	enzyme activity, inhibitor		1 µM	-11.9%
CS(C)(=O)=Nc1ccc(-c2ccc(-c3nc4cc(O[C@@H]5CO[C@H]6[C@@H]5OC[C@H]6O)[nH]c4cc3F)cc2)cc1	Serine/threonine-protein kinase Sgk1 (SGK1, Homo sapiens, UniProt O00141)	enzyme activity, inhibitor		10 µM	-16%
O=S(=O)(F)c1cccc(S(=O)(=O)Nc2ccc(N3CCNCC3)c(F)c2)c1	GTPase KRas (KRAS, Homo sapiens, UniProt P01116)	SOS1-mediated nucleotide exchange		concentration not given, 24 h, together with: BODIPY-FL-GDP	no inhibition
N[C@H](C(=O)N1CCCC1)C1CCN(c2nccc3c(-c4ncc(Cl)cc4Cl)cccc23)CC1	Protein-arginine deiminase type-2 (PADI2, Homo sapiens, UniProt Q9Y2J8)	enzyme activity, GDH-coupled		0.006291 µM, together with: 1.5 mM Ca2+ (high)	-2.1% and 0.722%
COc1ccc(F)cc1S(=O)(=O)Nc1cnc2c(c1)C(=O)NCCO2	5-HT1B receptor	radioligand binding		10 µM	1%
CN[C@@H]1[C@H](O)[C@H](NC)[C@H]2O[C@]3(O)[C@H](O[C@@H]2[C@H]1O)O[C@H](C)C[C@H]3NC(=O)Cc1ccc(Cl)cn1	D(3) dopamine receptor (DRD3, Homo sapiens, UniProt P35462)	ligand displacement, radioligand		10 µM	10%

Repeated from above:
SMILES	target	test	system	setting	inhibition
COc1ccc(F)cc1S(=O)(=O)Nc1cnc2c(c1)C(=O)NCCO2	5-HT1B receptor	radioligand binding		10 µM	1%
